Published values gathered from unrelated publications.
Compare with care: the assays were run in different laboratories. Several values in a cell are separate wells, animals, samples, runs or records. ± marks the error that the study gave. Primed or numbered codes have the meaning given here. Ends that are not written are not given here. * marks the point of attachment.
B1: RAB8A (Homo sapiens, UniProt P61006); sequence looked up; chain MAKTYDYLFKLLLIGDSGVGKTCVLFRFSEDAFNSTFISTIGIDFKIRTIELDGKRIKLQIWDTAGQERFRTITTAYYRGAMGIMLVYDITNEKSFDNIRNWIRNIEEHASADVEKMILGNKCDVNDKRQVSKERGEKLALDYGIKFMETSAKANINVENAFFTLARDIKAKMDKKLEGNSPQGSNQGVKITPDQQKRSSFFRCVLL
B2: SFN 1-231 (Homo sapiens, UniProt P31947); chain MERASLIQKAKLAEQAERYEDMAAFMKGAVEKGEELSCEERNLLSVAYKNVVGGQRAAWRVLSSIEQKSNEEGSEEKGPEVREYREKVETELQGVCDTVLGLLDSHLIKEAGDAESRVFYLKMKGDYYRYLAEVATGDDKKRIIDSARSAYQEAMDISKKEMPPTNPIRLGLALNFSVFHYEIANSPEEAISLAKTTFDEAMADLHTLSEDSYKDSTLIMQLLRDNLTLWT
B3: UGT1A9 (Homo sapiens, UniProt O60656); chain GKLLVVPMDGSHWFTMRSVVEKLILRGHEVVVVMPEVSWQLGRSLNCTVKTYSTSYTLEDLDREFKAFAHAQWKAQVRSIYSLLMGSYNDIFDLFFSNCRSLFKDKKLVEYLKESSFDAVFLDPFDNCGLIVAKYFSLPSVVFARGILCHYLEEGAQCPAPLSYVPRILLGFSDAMTFKERVRNHIMHLEEHLLCHRFFKNALEIASEILQTPVTEYDLYSHTSIWLLRTDFVLDYPKPVMPNMIFIGGINCHQGKPLPMEFEAYINASGEHGIVVFSLGSMVSEIPEKKAMAIADALGKIPQTVLWRYTGTRPSNLANNTILVKWLPQNDLLGHPMTRAFITHAGSHGVYESICNGVPMVMMPLFGDQMDNAKRMETKGAGVTLNVLEMTSEDLENALKAVINDKSYKENIMRLSSLHKDRPVEPLDLAVFWVEFVMRHKGAPHLRPAAHDLTWYQYHSLDVIGFLLAVVLTVAFITFKCCAYGYRKCLGKKGRVKKAHKSKTH
B4: FGF14 (Homo sapiens, UniProt Q92915-2); chain MVKPVPLFRRTDFKLLLCNHKDLFFLRVSKLLDCFSPKSMWFLWNIFSKGTHMLQCLCGKSLKKNKNPTDPQLKGIVTRLYCRQGYYLQMHPDGALDGTKDDSTNSTLFNLIPVGLRVVAIQGVKTGLYIAMNGEGYLYPSELFTPECKFKESVFENYYVIYSSMLYRQQESGRAWFLGLNKEGQAMKGNRVKKTKPAAHFLPKPLEVAMYREPSLHDVGETVPKPGVTPSKSTSASAIMNGGKPVNKSKTT
B5: POL30 (Saccharomyces cerevisiae, UniProt P15873); Cy3 label; sequence looked up; chain MLEAKFEEASLFKRIIDGFKDCVQLVNFQCKEDGIIAQAVDDSRVLLVSLEIGVEAFQEYRCDHPVTLGMDLTSLSKILRCGNNTDTLTLIADNTPDSIILLFEDTKKDRIAEYSLKLMDIDADFLKIEELQYDSTLSLPSSEFSKIVRDLSQLSDSINIMITKETIKFVADGDIGSGSVIIKPFVDMEHPETSIKLEMDQPVDLTFGAKYLLDIIKGSSLSDRVGIRLSSEAPALFQFDLKSGFLQFFLAPKFNDEE
B6: CCL21 mature, 1-111 (Homo sapiens, UniProt O00585); sequence looked up; chain SDGGAQDCCLKYSQRKIPAKVVRSYRKQEPSLGCSIPAILFLPRKRSQAELCADPKELWVQQLMQHLDKTPSPQKPAQGCRKDRGASKTGKKGKGSKGCKRTERSQTPKGP
Sequence of UniProt P06400 (whole entry, unmodified, looked up): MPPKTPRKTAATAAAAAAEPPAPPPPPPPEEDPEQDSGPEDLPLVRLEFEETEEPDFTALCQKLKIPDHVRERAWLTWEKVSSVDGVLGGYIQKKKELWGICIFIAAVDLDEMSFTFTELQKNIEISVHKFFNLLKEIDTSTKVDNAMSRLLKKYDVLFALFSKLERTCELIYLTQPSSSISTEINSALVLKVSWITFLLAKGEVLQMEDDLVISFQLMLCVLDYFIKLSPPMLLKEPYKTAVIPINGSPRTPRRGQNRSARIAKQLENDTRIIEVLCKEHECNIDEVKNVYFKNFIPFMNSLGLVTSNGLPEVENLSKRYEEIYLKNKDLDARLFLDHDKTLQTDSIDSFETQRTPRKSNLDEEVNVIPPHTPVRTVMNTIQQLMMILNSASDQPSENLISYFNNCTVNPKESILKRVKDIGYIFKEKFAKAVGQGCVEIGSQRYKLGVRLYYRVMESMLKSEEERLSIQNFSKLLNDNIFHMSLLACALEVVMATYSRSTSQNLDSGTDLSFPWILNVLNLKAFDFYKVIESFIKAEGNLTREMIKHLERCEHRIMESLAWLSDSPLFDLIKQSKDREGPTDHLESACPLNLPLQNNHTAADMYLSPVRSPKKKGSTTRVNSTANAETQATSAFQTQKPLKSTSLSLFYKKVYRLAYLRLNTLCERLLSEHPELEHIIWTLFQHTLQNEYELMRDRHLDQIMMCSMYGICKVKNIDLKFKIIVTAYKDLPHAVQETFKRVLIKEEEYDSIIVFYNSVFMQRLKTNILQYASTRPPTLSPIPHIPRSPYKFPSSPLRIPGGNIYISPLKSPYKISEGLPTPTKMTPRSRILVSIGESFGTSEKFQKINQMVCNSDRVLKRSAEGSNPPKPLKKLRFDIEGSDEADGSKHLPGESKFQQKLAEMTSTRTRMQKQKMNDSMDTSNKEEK
Sequence of UniProt P19137 (whole entry, looked up): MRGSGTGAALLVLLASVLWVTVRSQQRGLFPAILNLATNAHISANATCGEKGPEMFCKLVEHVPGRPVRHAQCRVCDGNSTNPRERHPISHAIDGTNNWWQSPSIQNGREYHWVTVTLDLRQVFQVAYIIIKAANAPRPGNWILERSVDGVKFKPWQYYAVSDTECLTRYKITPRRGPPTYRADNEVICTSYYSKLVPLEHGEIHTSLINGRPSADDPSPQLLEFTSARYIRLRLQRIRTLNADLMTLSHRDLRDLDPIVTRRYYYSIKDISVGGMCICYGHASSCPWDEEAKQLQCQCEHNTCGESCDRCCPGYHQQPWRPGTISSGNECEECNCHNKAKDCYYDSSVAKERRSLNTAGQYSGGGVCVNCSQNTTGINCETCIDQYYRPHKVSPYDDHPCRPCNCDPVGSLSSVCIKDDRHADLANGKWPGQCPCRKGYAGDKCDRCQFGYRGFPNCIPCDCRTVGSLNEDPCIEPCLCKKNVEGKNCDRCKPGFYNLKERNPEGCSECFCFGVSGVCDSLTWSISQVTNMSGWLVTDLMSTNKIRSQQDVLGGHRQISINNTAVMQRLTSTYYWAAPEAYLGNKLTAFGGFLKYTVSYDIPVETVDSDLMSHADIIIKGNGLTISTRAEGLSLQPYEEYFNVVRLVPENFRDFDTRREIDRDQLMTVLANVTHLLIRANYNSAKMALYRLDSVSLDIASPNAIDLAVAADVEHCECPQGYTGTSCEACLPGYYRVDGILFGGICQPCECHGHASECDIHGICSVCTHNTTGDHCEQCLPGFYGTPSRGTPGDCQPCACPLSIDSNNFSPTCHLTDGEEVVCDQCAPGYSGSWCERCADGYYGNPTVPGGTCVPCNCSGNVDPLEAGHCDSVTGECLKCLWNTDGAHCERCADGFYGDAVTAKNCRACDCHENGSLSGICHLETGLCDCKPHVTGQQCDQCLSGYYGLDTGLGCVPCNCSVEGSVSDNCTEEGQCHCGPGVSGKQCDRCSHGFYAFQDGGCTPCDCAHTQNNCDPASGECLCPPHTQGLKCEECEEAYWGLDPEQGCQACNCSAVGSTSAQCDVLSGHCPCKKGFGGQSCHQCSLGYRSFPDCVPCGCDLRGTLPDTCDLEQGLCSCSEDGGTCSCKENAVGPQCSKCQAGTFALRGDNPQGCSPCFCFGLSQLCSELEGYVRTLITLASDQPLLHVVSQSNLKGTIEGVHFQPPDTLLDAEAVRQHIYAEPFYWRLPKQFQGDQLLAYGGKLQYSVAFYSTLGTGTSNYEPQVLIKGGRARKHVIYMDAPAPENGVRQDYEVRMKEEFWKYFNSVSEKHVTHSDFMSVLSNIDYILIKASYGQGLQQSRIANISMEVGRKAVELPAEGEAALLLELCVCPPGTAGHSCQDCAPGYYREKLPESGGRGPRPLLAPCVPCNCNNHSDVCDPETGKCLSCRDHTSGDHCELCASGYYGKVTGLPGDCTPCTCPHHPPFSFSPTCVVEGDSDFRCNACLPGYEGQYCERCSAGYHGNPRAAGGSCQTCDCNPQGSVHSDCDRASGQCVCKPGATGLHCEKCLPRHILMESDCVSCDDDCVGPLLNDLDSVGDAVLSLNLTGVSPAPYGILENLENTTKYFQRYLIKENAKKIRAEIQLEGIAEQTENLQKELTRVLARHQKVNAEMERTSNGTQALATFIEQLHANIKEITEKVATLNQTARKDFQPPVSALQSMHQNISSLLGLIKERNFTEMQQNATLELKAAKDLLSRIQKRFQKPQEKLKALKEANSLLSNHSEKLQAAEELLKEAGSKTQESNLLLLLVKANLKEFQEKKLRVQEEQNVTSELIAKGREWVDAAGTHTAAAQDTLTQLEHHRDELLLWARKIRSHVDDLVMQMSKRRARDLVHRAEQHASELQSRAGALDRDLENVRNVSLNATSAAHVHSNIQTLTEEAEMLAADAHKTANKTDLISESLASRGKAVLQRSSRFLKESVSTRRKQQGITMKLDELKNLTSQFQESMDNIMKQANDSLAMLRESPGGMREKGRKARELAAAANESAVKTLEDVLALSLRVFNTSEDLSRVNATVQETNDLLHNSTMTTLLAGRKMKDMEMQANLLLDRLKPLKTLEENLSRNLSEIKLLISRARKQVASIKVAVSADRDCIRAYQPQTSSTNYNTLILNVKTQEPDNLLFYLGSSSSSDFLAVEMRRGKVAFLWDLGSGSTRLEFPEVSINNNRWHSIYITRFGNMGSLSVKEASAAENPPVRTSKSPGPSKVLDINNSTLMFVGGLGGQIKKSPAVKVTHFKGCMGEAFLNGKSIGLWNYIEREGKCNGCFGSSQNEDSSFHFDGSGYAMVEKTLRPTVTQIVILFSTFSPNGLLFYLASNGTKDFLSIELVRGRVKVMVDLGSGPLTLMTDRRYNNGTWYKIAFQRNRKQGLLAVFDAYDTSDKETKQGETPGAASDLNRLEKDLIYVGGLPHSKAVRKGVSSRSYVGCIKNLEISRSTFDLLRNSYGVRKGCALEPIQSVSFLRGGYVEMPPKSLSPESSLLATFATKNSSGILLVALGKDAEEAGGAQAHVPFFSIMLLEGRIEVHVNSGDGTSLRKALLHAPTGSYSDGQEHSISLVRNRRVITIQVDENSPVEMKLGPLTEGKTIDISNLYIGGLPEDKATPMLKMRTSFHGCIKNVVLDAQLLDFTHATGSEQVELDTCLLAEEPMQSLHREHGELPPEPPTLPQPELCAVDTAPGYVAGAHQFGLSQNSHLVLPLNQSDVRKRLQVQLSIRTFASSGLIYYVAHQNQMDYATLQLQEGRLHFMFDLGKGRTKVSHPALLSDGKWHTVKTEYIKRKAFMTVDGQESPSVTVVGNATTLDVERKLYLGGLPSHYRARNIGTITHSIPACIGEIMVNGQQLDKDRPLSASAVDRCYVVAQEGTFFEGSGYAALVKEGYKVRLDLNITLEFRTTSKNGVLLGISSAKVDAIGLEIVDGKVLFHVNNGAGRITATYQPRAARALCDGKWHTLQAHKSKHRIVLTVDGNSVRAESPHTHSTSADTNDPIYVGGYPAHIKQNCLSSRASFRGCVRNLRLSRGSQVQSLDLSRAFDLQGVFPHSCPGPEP
Sequence of UniProt P00178 (whole entry, looked up): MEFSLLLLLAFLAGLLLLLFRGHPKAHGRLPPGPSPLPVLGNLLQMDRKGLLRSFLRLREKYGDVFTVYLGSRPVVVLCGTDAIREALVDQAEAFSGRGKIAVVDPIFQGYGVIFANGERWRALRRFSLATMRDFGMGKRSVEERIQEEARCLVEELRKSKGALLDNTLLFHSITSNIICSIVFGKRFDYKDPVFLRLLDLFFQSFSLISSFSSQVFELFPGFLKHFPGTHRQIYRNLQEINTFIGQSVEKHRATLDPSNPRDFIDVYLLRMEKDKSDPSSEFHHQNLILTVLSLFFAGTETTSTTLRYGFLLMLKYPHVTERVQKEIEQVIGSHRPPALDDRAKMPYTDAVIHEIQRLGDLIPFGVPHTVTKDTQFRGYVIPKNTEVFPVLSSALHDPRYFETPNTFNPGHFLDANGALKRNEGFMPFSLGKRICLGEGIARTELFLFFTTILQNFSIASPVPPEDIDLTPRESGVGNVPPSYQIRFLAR
Sequence of UniProt P32248 (whole entry, looked up): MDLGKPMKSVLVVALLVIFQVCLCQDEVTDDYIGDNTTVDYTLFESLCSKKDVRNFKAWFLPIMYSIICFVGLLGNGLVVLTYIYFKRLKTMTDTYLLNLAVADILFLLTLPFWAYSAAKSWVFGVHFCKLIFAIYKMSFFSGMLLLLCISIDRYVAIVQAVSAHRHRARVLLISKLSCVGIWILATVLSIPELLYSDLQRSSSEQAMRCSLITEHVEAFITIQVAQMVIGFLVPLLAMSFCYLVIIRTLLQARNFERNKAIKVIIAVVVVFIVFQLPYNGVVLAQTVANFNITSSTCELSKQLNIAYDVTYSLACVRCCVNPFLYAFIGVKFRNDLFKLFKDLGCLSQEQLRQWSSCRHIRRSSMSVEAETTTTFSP
Sequence of UniProt P61077 (whole entry, looked up): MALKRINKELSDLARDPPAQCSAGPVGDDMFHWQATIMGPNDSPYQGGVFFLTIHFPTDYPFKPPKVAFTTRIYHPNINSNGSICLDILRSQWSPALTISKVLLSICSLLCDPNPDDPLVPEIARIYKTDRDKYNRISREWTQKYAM

The relative binding of `B1 (RAB8A)` is reported as greater than 2 fold (Myo5a 1260-1853 (Mus musculus, UniProt Q99104); pull-down; CHO-IR, lysate; 15 min, together with: insulin 100 nM; baseline: basal without insulin, higher = more binding).
For `B2 (SFN 1-231)`, “molecule per partner” read 2 14-3-3 per Tau and 1 14-3-3 per Tau (MAPT PKA phosphorylated S214A/S409A/S416A, pS324, pS356 (UniProt P10636-8); cross-linking).
`ndc-80/him-10 truncated, sfGFP-fused (Caenorhabditis elegans)` gave a koff of 0.34 s⁻¹ (TUBA1B/TUBB2B taxol-stabilized microtubules; residence times, single-molecule TIRF microscopy; 30 °C).
Under “release rate constant”, `RFC1/RFC2/RFC3/RFC4/RFC5 Rfc1 284-end (Saccharomyces cerevisiae)` is recorded as 0.26 s⁻¹ (POL30 1-258 C22S/C62S/C81S/S43C, MDCC on Cys43 (Saccharomyces cerevisiae, UniProt P15873); stopped-flow fluorescence; 20 °C, together with: ATP 0.5 mM).
`CFH mature protein V62I (Homo sapiens)` gave an EC50 of 0.014 µM (C3b (UniProt P01024); fI-mediated C3b inactivation; haemolysis assay, sheep erythrocytes).
For `COL4A1 (Homo sapiens, UniProt P02462)`, the cell viability was 34% (Itga1/Itgb1 whole, on cells (Mus musculus); MTT; MLEC; 500 nM, 24 h; baseline: untreated control, higher = more viable cells).
For `GRGDS-NH2 (GRGDS peptide; C-terminal amide)`, the IC50 was 0.294 ± 0.114 µM (ITGAV/ITGB3; competition with ligand, ELISA; peptide; pH 7.6).
The EC50 of `HP (Homo sapiens, UniProt P00738)` is reported as 20 µg/mL (HMGB1 (Homo sapiens, UniProt P09429); TNF and IL-8 secretion, inhibitor; primary human macrophages; together with: HMGB1 2 µg/mL).
`ITGB1 whole (Gallus gallus, UniProt P07228)` has an attachment of 25% (laminin (Mus musculus, UniProt P19137); neuron attachment; E14 CG neurons; 90 min, 37 °C, no antibody; baseline: poly-D-lysine, higher = more attachment).
With `{Cy5.5″}-TNYLFSPNGPIARAWK(DOTA)-NH2 (peptide; N-terminal Cy5.5, C-terminal DOTA; Cy5.5″ = near-infrared fluorescent dye Cy5.5; DOTA = O=C(O)CN1CCN(CC(=O)O)CCN(CC(=O)*)CCN(CC(=O)O)CC1)` the koff was 0.00187 s⁻¹ (EPHB4 16-539 (Homo sapiens, UniProt P54760); SPR; peptide).
`ITGA5/ITGB1 (Mus musculus)` gave a cell adhesion of 2 fold (Fn1 (Rattus norvegicus, UniProt P04937); mesangial cell adhesion; mesangial cells; 60 min, high glucose; baseline: normal glucose, higher = more adhesion).
The koff of `MWSRSDHNLNKFWILHYSANPS (peptide)` is reported as 0.00264 s⁻¹ (CD274 extracellular domain (Homo sapiens); BLI; peptide).
For `B3 (UGT1A9)`, the Vmax/Km was 3.7 µL/min/mg (Oc1ccc([C@H]2COc3cc(O)ccc3C2)cc1; steady-state kinetics; pH 7.4, 37 °C).
`CXCL12 mature (Homo sapiens, UniProt P48061)` gave an EC50 of 0.0073 µM (CXCR4 (Homo sapiens, UniProt P61073); inhibition of forskolin-induced cAMP accumulation, agonist; together with: forskolin).
The Rb phosphorylation of `CCND3/CDK6 fusion, linker (Homo sapiens)` is reported as 30 fold (RB1 F897A/L901A/R908A (Homo sapiens, UniProt P06400); in vitro kinase assay; baseline: wild-type Rb, higher = greater difference).
For `TRPC1 (Homo sapiens, UniProt P48995-2)`, the TRPC1 current was 22 pA (STIM1 K684D/K685D (UniProt Q13586); patch clamp; HEK; together with: carbachol 100 µM).
`B4 (FGF14)` has a peak luminescence of 13200 RLU (CD4/SCN8A/NLuc Nav1.6 C-terminal tail; split-luciferase complementation; HEK293; higher = more interaction).
With `WWC1 C-terminal truncation (Mus musculus)` the relative co-precipitation was 2.49 fold (Pick1 (Mus musculus, UniProt Q62083); co-IP; HEK293T; baseline: wild-type KIBRA, higher = more binding).
For `B5 (POL30)`, the koff was 0.53 ± 0.01 s⁻¹ (RAD30 (Saccharomyces cerevisiae, UniProt Q04049); single-molecule TIRF; pH 7.5).
Under “reduction of isopeptide formation”, `UBE2D3 (Homo sapiens, UniProt P61077)` is recorded as 30 % reduction (MYCBP2 4378-4640 C4520K/F4394A (Homo sapiens); E2-E3 isopeptide formation; single turnover).
`Por (Rattus norvegicus, UniProt P00388)` — result for “rate constant k2”: 0.25 s⁻¹ (CYP2B4 (Oryctolagus cuniculus, UniProt P00178); first electron transfer, stopped-flow; nanodiscs; 25 °C, slow phase, anaerobic).
For `BDKRB1 (Homo sapiens, UniProt P46663)`, “loss of surface receptor” read 50% (BDKRB2 (Homo sapiens, UniProt P30411-2); radioligand binding; higher = more loss).
The KM of `DnaA (Caulobacter crescentus)` is reported as 13 µM (ClpA/ClpP ClpA lacking C-terminal 9 residues (Caulobacter crescentus); steady-state kinetics; 30 °C).
The EC50 of `B6 (CCL21 mature, 1-111)` is reported as 0.0202 µM (CCR7 (Homo sapiens, UniProt P32248); cAMP inhibition, agonist, BRET; CHO).
Under “molecule per partner”, `WDR48 fragment (Homo sapiens) (sequence not shown)` is recorded as 2 UAF1 per USP12 (USP12/ubiquitin, covalent Ub-PRG warhead (Homo sapiens); SEC-SAXS).
The IC50 of `GCVRLHESCLGQQVPCCDPAATCYCYGRGDNDLRCYCR (AgRP variant)` is reported as 0.023 µM (ITGAV/ITGB3 whole, on cells (Homo sapiens); competition with labeled echistatin, radioligand binding; designed binder, U87MG; 3 h, room temperature, together with: 125I-echistatin 0.06 nM).
The ΔH of `DLAT L2 domain, lipoylated` is reported as -14.5 kcal/mol (Pdk2 (Rattus norvegicus); ITC; 30 °C, single-site, no nucleotide).
`CALM1 T26C, Alexa Fluor 568 at C26 (sequence not shown)` — result for “donor fluorescence lifetime”: 2.32 ns (Camk2d T287A (Rattus norvegicus); FRET; 500 nM).
`IDEYFSEQPLKNLLLSTSEEQIAKCFIIENISTIA (IFNAR1 478-512 E500A (Homo sapiens, UniProt P17181))` — result for “apparent Tm reduction”: greater than 5 °C (TYK2 23-583 (Homo sapiens, UniProt P29597); differential scanning fluorimetry; peptide).

Repeated from above:
`ndc-80/him-10 truncated, sfGFP-fused (Caenorhabditis elegans)` gave a koff of 0.34 s⁻¹ (TUBA1B/TUBB2B taxol-stabilized microtubules; residence times, single-molecule TIRF microscopy; 30 °C).
Under “release rate constant”, `RFC1/RFC2/RFC3/RFC4/RFC5 Rfc1 284-end (Saccharomyces cerevisiae)` is recorded as 0.26 s⁻¹ (POL30 1-258 C22S/C62S/C81S/S43C, MDCC on Cys43 (Saccharomyces cerevisiae, UniProt P15873); stopped-flow fluorescence; 20 °C, together with: ATP 0.5 mM).
`CFH mature protein V62I (Homo sapiens)` gave an EC50 of 0.014 µM (C3b (UniProt P01024); fI-mediated C3b inactivation; haemolysis assay, sheep erythrocytes).
